Measured values gathered from unrelated publications.
Lines come from different studies, so protocols differ.
Cell line: Vero E6

`COc1ccc(C[C@@H]2c3cc(Oc4cc(C[C@@H]5c6cc(O)c(OC)cc6CCN5C)ccc4O)c(OC)cc3CCN2C)cc1` gave a cytotoxicity of 0% (6.25 µM).
The intracellular fraction of `CCC(CC)COC(=O)[C@H](C)N[P@](=O)(OC[C@H]1O[C@@](C#N)(c2ccc3c(N)ncnn23)[C@H](O)[C@@H]1O)Oc1ccccc1` is reported as 0.03 (with: verapamil).
The CC50 of `COc1ccc2cc1Oc1ccc(cc1)C[C@H]1c3cc(c(OC)cc3CCN1C)Oc1c(OC)c(OC)cc3c1[C@H](C2)N(C)CC3` is reported as > 2500 nM (cell number; 40 (unit not given)).
`CC(C)(C)[C@@H]1NC(=O)O[C@@H]2CCC[C@H]2OC/C=C/C(F)(F)c2nc3ccccc3nc2O[C@@H]2C[C@@H](C(=O)N[C@]3(C(=O)NS(=O)(=O)C4(C)CC4)C[C@H]3C(F)F)N(C2)C1=O` has a CC50 of > 50000 nM (cell viability, MTT; 48 (unit not given)).
Under cytotoxicity, `N=C(N)NCCCCC(=O)N[C@@H](CCC(N)=O)C(=O)N[C@@H](CCc1ccccc1)C(=O)N[C@@H](CCCNC(=N)N)C(=O)c1nc2ccccc2s1` is recorded as “not toxic” (CellTiter-Glo; 10 µM, 24 h; relative to: DMSO).
Under “unbound fraction in cells”, `CCN(CCO)CCCC(C)Nc1ccnc2cc(Cl)ccc12` (stereo not shown) is recorded as 0.00024 (concentration not given, 4 (unit not given), with: verapamil).
`C=C[C@@](C)(/C=C/c1ccc(O)cc1)CCC=C(C)C` gave a cytotoxicity of 25% (200 µM).
The CC50 of `C[C@@H]1CN(c2ncc(C(O)CO)cc2Cl)CCN1c1nc2c(-c3cc(F)c(F)c(F)c3)cc(C(F)(F)F)cc2[nH]1` (stereo partly shown) is reported as > 2500 nM (cell number; 40 (unit not given)).
With `O=C(NCCCN1CCCCCC1)c1ccc2c(c1)sc1nc(-c3ccccc3)cn12` the AC50 was 14.1 µM (cytotoxicity, CellTiter-Glo; retest 8-point, no virus).
With `Cn1c(=O)c2c(nc(C=Cc3cccc(Cl)c3)n2C)n(C)c1=O` the CC50 was ~2500 nM (cell number; 40 (unit not given)).
With `NC(=O)c1nc(F)c[nH]c1=O` the intracellular fraction was 0.05 (with: verapamil).
`CC(C)=CCc1c(O)ccc(C(=O)/C=C/c2ccc(O)cc2)c1O` has a cytotoxicity of 0% (6.25 µM).
For `Cc1oc(-c2cccc(Cl)c2)nc1CN1CCCC(C(=O)NCCc2ccc(Cl)cc2)C1` (stereo not shown), the AC50 was 14.1 µM (cytotoxicity, CellTiter-Glo; retest 8-point, no virus).
`Cc1cccc(/C=N/Nc2cc(N3CCOCC3)nc(OCCc3ccccn3)n2)c1` gave a CC50 of ~2500 nM (cell number; 40 (unit not given)).
`Cc1nn(-c2ccc(Cl)cc2)c2c1C(c1ccc(I)cc1)C(C#N)=C(N)O2` (stereo not shown) has a viability of 58.8% (MTT; 25 µM).
The CC50 of `CCC(CC)COC(=O)[C@H](C)N[P@](=O)(OC[C@H]1O[C@@](C#N)(c2ccc3c(N)ncnn23)[C@H](O)[C@@H]1O)Oc1ccccc1` is reported as > 2500 nM (cell number; 40 (unit not given)).
`NCC(=O)Nc1ccc(-n2nc(C(F)(F)F)cc2-c2ccc3c(ccc4ccccc43)c2)cc1` — result for “highest non-cytotoxic concentration”: < 3 µM (MTT; 8 h).
`Cc1nn(-c2ccc(Cl)cc2)c2c1C(c1ccc(-c3ccccc3)cc1)C(C#N)=C(N)O2` (stereo not shown) has a viability of 54.1% (MTT; 25 µM).
The CC50 of `CC(C)(C)NC(=O)N[C@H](C(=O)N1C[C@H]2[C@@H]([C@H]1C(=O)NC(CC1CCC1)C(=O)C(N)=O)C2(C)C)C(C)(C)C` (stereo partly shown) is reported as > 50000 nM (cell viability, MTT; 48 (unit not given)).
The cytotoxicity of `O=C(/C=C/c1ccc(O)c(O)c1/C=C/c1ccc(O)c(O)c1)O[C@H](Cc1ccc(O)c(O)c1)C(=O)O` is reported as 0% (25 µM).
`C1=C(c2ccc(CN3CCCCC3)cc2)N2CCN=C2c2ccccc21` gave a CC50 of > 2500 nM (cell number; 40 (unit not given)).
`C=C[C@@H]1C[C@]1(NC(=O)[C@@H]1C[C@@H]2CN1C(=O)[C@H](C(C)(C)C)NC(=O)O[C@@H]1C[C@H]1CCCCCc1nc3ccc(OC)cc3nc1O2)C(=O)NS(=O)(=O)C1CC1` has a CC50 of > 50000 nM (cell viability, MTT).
`CC(C)(O)c1ccc2c(c1)C(=CCCN1CCC(O)(c3ccc(Cl)cc3)C(C)(C)C1)c1cccnc1CO2` (stereo not shown) gave a CC50 of > 2500 nM (cell number; 40 (unit not given)).
For `Cc1ccc(Nc2ccnc(N3CCC(C(=O)NCCCc4ccccc4)CC3)n2)cc1`, the AC50 was 14.1 µM (cytotoxicity, CellTiter-Glo; retest 8-point, no virus).
With `O=C(O[C@@H]1Cc2c(O)cc(O)cc2O[C@@H]1c1cc(O)c(O)c(O)c1)c1cc(O)c(O)c(O)c1` the cytotoxicity was 100% (200 µM).

Some of these lines once more:
`C1=C(c2ccc(CN3CCCCC3)cc2)N2CCN=C2c2ccccc21` gave a CC50 of > 2500 nM (cell number; 40 (unit not given)).
`COc1ccc(C[C@@H]2c3cc(Oc4cc(C[C@@H]5c6cc(O)c(OC)cc6CCN5C)ccc4O)c(OC)cc3CCN2C)cc1` gave a cytotoxicity of 0% (6.25 µM).
The CC50 of `CCC(CC)COC(=O)[C@H](C)N[P@](=O)(OC[C@H]1O[C@@](C#N)(c2ccc3c(N)ncnn23)[C@H](O)[C@@H]1O)Oc1ccccc1` is reported as > 2500 nM (cell number; 40 (unit not given)).
